Results pooled from the literature.
Protocols differ between the studies behind these lines. Values after ≈ are worked out from the molar mass of the structure shown.

Structure (SMILES)	tested on	test	system	conditions	how to read	endpoint	result
COc1cc(CCC[P+](c2ccccc2)(c2ccccc2)c2ccccc2)c(OC)c2c1OCO2.[I-]	MDA-MB-231	NCI60 SRB	–	–	–	LC50	-4.07 log M
CN1CCN(S(=O)(=O)c2cc([N+](=O)[O-])ccc2N(CCOS(C)(=O)=O)CCOS(C)(=O)=O)CC1	–	–	NSG mice, sample BA PDX	intraperitoneal, 25 mg/kg weekly x3	reference: treated over vehicle	EFS ratio (T/C)	4.2
C[C@H](C(=O)N[C@H]1COc2ccccc2[C@@H]1S(C)(=O)=O)c1ccc(F)cc1	kainate receptor, rat	binding	–	10 µM, Eurofins selectivity panel	–	inhibition	-3%
CN1CCN(C2(CNC3CCN(c4cccc(-c5cc6cc(F)ccc6[nH]5)c4)CC3)CCC2)CC1	EKVX	–	–	–	–	GI50	1610 nM
CC[C@H](C)[C@@H]1NC(=O)[C@@H]2CCCN2C(=O)[C@H](CC(C)C)NC(=O)[C@H](CC(C)C)NC(=O)CNC(=O)[C@@H](NC(=O)[C@@H](NC(=O)[C@H](CC(=O)O)NC(=O)CNC(=O)[C@@H](NC(=O)[C@H](C)NC(=O)CNC(=O)[C@H](CCCCN)NC(=O)[C@H](CC(C)C)NC(=O)[C@H](CC(C)C)NC(=O)[C@H](CCCCN)NC(=O)CNC(=O)[C@@H](NC(=O)[C@@H](N)CC(C)C)C(C)C)C(C)C)C(C)C)CSSC[C@@H](C(=O)O)NC1=O	–	RNA-seq, refers to: Ttc14	mouse, traumatic brain injury model, frontal cortex and hippocampus	dose not given	reference: TBI alone	log2 fold change	0.579
c1ccc(C(NCCNC(c2ccccc2)c2ccccc2)c2ccccc2)cc1	imidazoline I2 central, rat	binding	–	10 µM, Eurofins selectivity panel	–	inhibition	-1%
COc1c(CCC[P+](c2ccccc2)(c2ccccc2)c2ccccc2)cc2c(c1OC)OCO2.[I-]	SK-MEL-5	SRB	–	–	–	GI50	-5.88 log M
CC[C@H](C)[C@H](NC(=O)[C@H](C)NC(=O)[C@H](CCCCN)NC(=O)[C@H](CC(C)C)NC(=O)[C@H](C)NC(=O)[C@@H](NC(=O)[C@H](Cc1c[nH]cn1)NC(=O)[C@H](CC(C)C)NC(=O)[C@@H](NC(=O)[C@@H](NC(=O)[C@H](CCCCN)NC(=O)[C@H](C)NC(=O)[C@H](C)NC(=O)[C@H](CO)NC(=O)[C@H](CCCCN)NC(=O)[C@H](Cc1ccccc1)NC(=O)[C@@H](NC(=O)[C@H](CCCCN)NC(=O)[C@H](CC(C)C)NC(=O)[C@H](Cc1ccccc1)NC(=O)[C@H](CO)NC(=O)[C@H](CCCCN)NC(=O)[C@H](Cc1c[nH]c2ccccc12)NC(=O)[C@H](CCCCN)NC(C)=O)[C@@H](C)O)[C@@H](C)O)C(C)C)[C@@H](C)O)C(=O)N[C@@H](CO)C(=O)N[C@@H](CO)C(N)=O	Enterobacter cloacae	–	–	range over strains	–	MBC	4 µg/mL (≈ 1.36 µM)
